Results gathered from unrelated publications.
Each line is one published result; not all experiments were run side by side.
Target: Mitogen-activated protein kinase kinase kinase 10 (MAP3K10, Homo sapiens, UniProt Q02779)

| Structure (SMILES) | test | setting | how to read | quantity | value |
| --- | --- | --- | --- | --- | --- |
| CNC(=O)C1CCN(c2cc(C)c(F)cc2NC(=O)c2ccc(-c3cc(O)ccc3C)c(C)c2)CC1 | binding, competition with immobilised ligand | 1 µM | – | remaining binding | 78% |
| CNC1C[S+]2CC[S+]3CC[S+](C1)[Ru-4]321([N]=C=S)[n]2c3ccc(OC)cc3c3c4c(c5cc(F)c[n+]1c5c32)C(=O)NC4=O (centres unmarked) | KinomeScan | 0.1 µM | relative to: untreated | remaining binding | 80% |
| C=CC(=O)N1Cc2nc(-c3cc(-c4cc(Cl)cnc4Cl)c(F)cc3F)n(-c3ccncn3)c2C1 | cell-free assay, inhibitor | 1 µM | – | inhibition | -1% |
| Cc1ccc(-c2c(/C=C(\C#N)C(=O)NC(C)C)n(CCCO)c3ncnc(N)c23)cc1 | cell-free assay, competition with immobilised ligand | 1 µM | – | remaining binding | 87% |
| CN1CCN(Cc2ccc(-c3ccc(CO[C@H]4CCC[C@@H]4NC(=O)c4cc(-c5cnn(C)c5)cnc4N)cc3)cc2)CC1 | enzyme activity, inhibitor | 0.1 µM | – | inhibition | -1% |
| COc1c(Cl)cccc1Nc1c(-c2ccncc2C#C[C@@]2(C)CCCN2C(=O)/C=C/CN(C)C)[nH]c2c1C(=O)NCC2 | binding, competition with immobilised ligand | 3 µM | – | remaining binding | 70% |
| O=C(Cc1ccc(OCc2ccccc2)cc1)NC1(C(=O)O)CCN(C(=O)c2ccc(-c3cccc(Cl)c3)cc2)CC1 | enzyme activity, inhibitor | 10 µM | – | activity vs control | 103% |
| NC(=O)[C@@H](O)C[C@H]1CCc2sc3ncnc(O[C@H]4CC[C@H](N5CCOCC5)CC4)c3c21 | enzyme activity, inhibitor | 10 µM | – | inhibition | 4% |
| Nc1ncc2c(n1)-c1c([nH]c3ccc(C4=CCOCC4)cc13)CCC2 | binding, competition with immobilised ligand | 1 µM | – | remaining binding | 100% |
| Nc1ncc(-c2cc(-c3cnn(CC(F)(F)F)c3)ncc2F)nc1C(=O)NC1CNCC(F)C1 (centres unmarked) | enzyme activity | 1 µM | relative to: DMSO control | remaining activity | 87.5% |
| CNC(=O)C[C@H](Cc1ccc(C#N)cc1)NC(=O)c1cc(-c2ccc(CN[C@H](C)c3ccc(C)cc3)o2)ccc1Cl | enzyme activity, inhibitor | 1 µM | – | activity vs control | 98% |
| CCN1CCN(Cc2ccc(C(=O)Nc3ccc(C)c(NCc4cnc5[nH]ccc5c4OC)c3)cc2C(F)(F)F)CC1 | binding, competition with immobilised ligand | 1 µM | – | remaining binding | 55% |
| CC(C)=CC1OC(C)(C)C2C=C3C(=O)C(Cl)=CC(O)C3C3C(O)C4OC4C(=O)C132 (centres unmarked) | cell-free assay, competition with immobilised ligand | 10 µM | – | remaining binding | 77% |
| C=CC(=O)N1CCCC(n2c(=O)c3ncccc3n(Cc3ccc(Oc4ccccc4)cc3)c2=O)C1 (centres unmarked) | cell-free assay, competition with immobilised ligand | 1 µM | – | remaining binding | 73% |
| Cc1cnc2nc1Nc1cccc(c1)COC/C=C/COCc1cc(ccc1OCCN1CCOCC1)N2 | binding, competition with immobilised ligand | 0.1 µM | – | remaining binding | 67% |
| NC(=O)C[C@H]1CCc2sc3ncnc(O[C@H]4CC[C@H](N5CCOCC5)CC4)c3c21 | enzyme activity, inhibitor | 10 µM | – | inhibition | -2% |
| CCn1cc(C(=O)O)c(=O)c2c(N)c(F)c(NC3CCCCC3)cc21 | kinase activity | 0.1 µM, together with: ATP at Km | – | inhibition | 3.8% |
| COc1cc(Nc2nccc(-c3cnn4nc(OC)ccc34)n2)cc(C(F)(F)F)c1 | binding, competition with immobilised ligand | 1 µM | – | remaining binding | 89% |
| C=CC(=O)N1CCc2ccc(-n3c(=O)ccc4cnc5ccc(-c6cnn(C)c6)cc5c43)cc21 | KINOMEscan | 1 µM | relative to: DMSO control | remaining binding | 100% |
| CN1CC[C@@H](COc2cnc(C#N)cc2-c2ccn3nc(NC(=O)C4CC4)cc3c2)C1 | enzyme activity, inhibitor | 1 µM | – | inhibition | 11% |
